Measured values from different studies.
Each numbered part is a random draw from the data of one study; scales do not carry over between parts. Changes are numbered by the printed parent chain.

Study 1
Molecule: PhoQ, residues 284 288 289 292 302 303 ASSHFY
Technique: Sort-seq
Item: YFP reporter
Matrix: E. coli
Setting: PhoQ-PhoP variant library
Together with: 10 µM Mg2+
Reference: high Mg2+ state
Direction: higher = stronger signaling
target	fold induction
PhoP, residues 12 14 15 18 19 QQAYL (Escherichia coli, UniProt P23836)	21.2
PhoP, residues 12 14 15 18 19 LFHKL (Escherichia coli, UniProt P23836)	8.96
PhoP, residues 12 14 15 18 19 GMGLL (Escherichia coli, UniProt P23836)	1.94

Study 2
Target: RING finger protein unkempt homolog, zinc fingers 1-6, GST-SBP tag (UNK, Homo sapiens, UniProt Q9C0B0, residues 30-357)
UniProt Q9C0B0, sequence (30-357, looked up): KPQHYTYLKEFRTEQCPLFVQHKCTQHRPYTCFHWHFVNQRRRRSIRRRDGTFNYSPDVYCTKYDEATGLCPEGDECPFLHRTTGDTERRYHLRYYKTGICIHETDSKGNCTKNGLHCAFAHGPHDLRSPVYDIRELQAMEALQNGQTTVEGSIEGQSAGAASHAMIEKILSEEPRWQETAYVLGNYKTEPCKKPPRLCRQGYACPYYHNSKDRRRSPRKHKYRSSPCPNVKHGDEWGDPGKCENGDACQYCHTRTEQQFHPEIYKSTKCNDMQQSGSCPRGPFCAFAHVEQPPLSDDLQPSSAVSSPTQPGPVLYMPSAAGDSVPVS
Technique: RNA Bind-n-Seq
Form: RNA
Matrix: in vitro
Concentration: not given
Setting: RNA with constant flanks, human-mouse chimeric sites, ends assumed
Reference: input RNA pool
Direction: higher = stronger binding
All sequences stand within: GGGAGUUCUACAGUCCGACGAUC … CAACAGAGGAUUGAGCAUCA
Strand	bound/input enrichment
GAAUCCUACUCAGGCGGAUUUUGCAACACCAAGCUCACAGCAGCAGCAUCUUAGUCACAGUUAGGUAGCUUUAGGGCUCUGUGGCCAGGGUUUUAUUCACAUGCAGGUUUGGAAAAUGUA	1.44 ratio
CUUAAUGUUAAUAUUUUUGAAUAAAUGAAGCUAAAAUUUUGCUUUCUGGUACAACACGCAUUAAUAAAAGGUUAAGUAAGUUUUGUUACUGAAGUACUAUUUAACAUCUCAGAAAAAAAC	0.308 ratio
GGCCUGGGACCGUCCUGGCUAGUGCAAAAUAGCGGCAGUGGAGGCUCAGAGGAAAGUUUUGUUAGUGGAGGCAGUGGUAGAGGCCGUCAUGUACGGUCCUUUACUCGAUAGAUGUGUUCU	0.954 ratio
GUCAACAGCUGCCUCAACCCCAUCCUCUACGCCUUCCUGGAUGAGAACUUCAAGGCCUGCUUCCGCAAGUUCUGCUGUGCUUCUGCCCUGCGCCGGGACGUGCAGGUGUCUGACCGCGUG	0.308 ratio
GCAGGAUCUUCUAAGUACCAGUGGGACAUUAUGAAAUCCCUUGGGCUCUCUGAUGACGAGAUAGUAAAGUUUUCUGAAGCAGAGCACUGGCUUGAUUAUUUCCCGCCACUGGCCGUUCAG	0.163 ratio
UUACUUUUGACUCCCUGGGUCAAGUUCCUGUGGGAAUCAUACAGGCAGUGUUUGGACCUUCUUCGAAACAAUUCUAGAGUAGAGCGCCUGUACCAUGAUAUCGCCCAACAAGCUUUCAAA	0.157 ratio
CGGAAGUUCUUGAUUUAUCAUUUUUCUCUUUUCUUUCUUUCCUUUAGGAAAAGCCUAAAGAUUAGGUUGUAAGAAAAACAGAAGCCAGCCAUGUUUCACCUGUGUUACAGGUAUUUCGUC	0.281 ratio
GGCUGCUGGUGACUGUCCUGGAGUGGCUGGAGUUCCCGCCGGAGCGCGGCCAGACUAAUUAUAGAAAAUGCCAAGUAGGAAGUUUGUUGAGGGUGAAGUGGUCAGAGGUCGAUGGCCUGG	3.83 ratio

Study 3
Target: Protein max, full length (MAX, Homo sapiens, UniProt P61244-2, residues 1-151)
Technique: protein-binding microarray
Form: double-stranded DNA, one strand shown
Matrix: in vitro
Concentration: not given
Setting: k-mer, scored over probes, only values ≥0.25
Direction: higher = stronger binding
Strand	E-score
CCCCGTGC	0.415
AGCGTGTC	0.379
ACACGCTA	0.34
CTGCACGC	0.395
CGTGCGGA	0.319
ACGCGCTC	0.251
CCGCCCCA	0.356
GCCTGCAC	0.253
CACGTGAG	0.493
ACGCTGCC	0.299
AAACGTGC	0.416
ACCATGAG	0.377
AACCAACG	0.254
ACCATGCT	0.445
GCACACAC	0.264
CTCGTGTC	0.42
CGGGTGGC	0.266
ATGCGCAC	0.361
CTGTCACA	0.255
CCACCTGC	0.419
CGTGGGAG	0.307

Study 4
Target: CCND2, cyclin fold, Cln2 fusion (human)
Technique: yeast growth competition, sequencing
Matrix: yeast
Setting: weak parent motif
Reference: not given
Direction: higher = stronger binding
Starting sequence: RBL2 docking peptide (human); STTRRRLFVENDS
Substitution	normalised enrichment score
F8C	0.214
T2S	0.238
R5L	0.113
T2K	1.12
N11G	0.52
R5H	0.6
R4T	0.419
R5G	0.0491
R4C	0.535
R4E	0.136
R5K	0.23
V9R	0.345
T3N	0.232
E10T	-0.28
L7Q	-0.187
D12Q	0.0942
R6F	0.185
D12I	0.165
E10Y	0.201
L7V	0.00838
R4M	0.0382
R5I	0.277
F8Q	0.528
R6N	-0.294
S1A	-0.105

Study 5
Substitution: E130Q
Target: ABI1, truncated, D143A, DHFR fusion (Arabidopsis thaliana)
Technique: DHFR PCA, deep sequencing
Matrix: yeast
Setting: methotrexate growth selection, single substitutions
Reference: wild-type fitted maximum
Direction: higher = stronger binding
Starting sequence: PYL1, truncated, DHFR fusion (Arabidopsis thaliana); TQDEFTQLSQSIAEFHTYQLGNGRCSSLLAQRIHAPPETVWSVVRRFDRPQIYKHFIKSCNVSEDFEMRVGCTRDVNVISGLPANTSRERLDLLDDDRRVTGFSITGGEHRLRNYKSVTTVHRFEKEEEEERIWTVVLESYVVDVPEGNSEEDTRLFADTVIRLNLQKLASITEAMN
conditions	relative binding score [%]
together with: (+)-ABA 200 µM	101
together with: (+)-ABA 0.032 µM	23.3
together with: (+)-ABA 0.0091 µM	23.2
together with: (+)-ABA 0.11 µM	35.1
together with: (+)-ABA 710 µM	112
together with: (+)-ABA 0 µM	25.4
